{"data": "Measured values from different studies", "note": "Every numbered part comes from another study and shows a few of its results, in no order. Positions count from the first letter of the parent shown."}
{"data": "Block 1", "target": "Ras GTPase-activating protein-binding protein 1, full length (G3BP1, Homo sapiens, UniProt Q13283)", "technique": "RNA Bind-n-Seq", "molecule type": "RNA", "sample": "in vitro", "concentration": "200 nM", "setting": "whole 134-nt RNA, ends assumed", "with": "150 mM KCl", "relative to": "input library", "direction": "higher = stronger binding", "all sequences stand within": "GGGAGUUCUACAGUCCGACGAUC … UGGAAUUCUCGGGUGUCAAGG", "chain of UniProt Q13283 (whole entry, looked up)": "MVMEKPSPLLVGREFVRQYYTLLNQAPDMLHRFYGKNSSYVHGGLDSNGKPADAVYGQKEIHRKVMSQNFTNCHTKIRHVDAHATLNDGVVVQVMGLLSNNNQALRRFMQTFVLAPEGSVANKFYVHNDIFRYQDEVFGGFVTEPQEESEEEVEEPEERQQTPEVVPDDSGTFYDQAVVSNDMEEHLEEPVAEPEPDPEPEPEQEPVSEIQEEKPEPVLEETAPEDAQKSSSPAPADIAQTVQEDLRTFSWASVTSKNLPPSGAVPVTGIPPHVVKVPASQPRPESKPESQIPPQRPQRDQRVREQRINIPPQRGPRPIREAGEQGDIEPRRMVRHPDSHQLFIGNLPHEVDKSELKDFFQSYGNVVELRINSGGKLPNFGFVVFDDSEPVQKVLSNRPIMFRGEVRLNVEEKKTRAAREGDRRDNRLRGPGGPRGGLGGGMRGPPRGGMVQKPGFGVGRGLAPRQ"}
{"Strand": "UUAAGUUGAAGGAGCGCUACCGCAACGUGCUGGACACCAUGUUCGAGCUGCUGCCCCGGAUGGCCAGGUACUGCCAGCCCCCACCCUGGC", "log2 enrichment": -0.29}
{"Strand": "UGCGAGGUGGAUUUUGUUUAUUUUUUUAGCUCAUUUCCAGGGGUGGGAAUUUUUUUUUAAUAUGUGUCAUGAAUAAAGUUGUUUUUGAAA", "log2 enrichment": -0.418}
{"Strand": "CCUCAAGUCCUGUGCUACACAUCGUAUGUACCGAAUCGGAAGGAAGGGGAAGGAAAGUAUUAUGUUACGCCGUUCGGAUCUGCACUUCCA", "log2 enrichment": -0.368}
{"Strand": "CCUCAAGUCCUGUGCUACACAUCGUAUGUACCGAAUCGGCCGGCCGGGCCGGAAAGUAUUAUGUUACGCCGUUCGGAUCUGCACUUCCAG", "log2 enrichment": -0.23}
{"Strand": "CACAGACAACACGCAAACACACAGACACAGAGGGAAGGGGUUGGGAUGGGGACAGGGUGCACAGCAGGGCGGGGUAGGACCCCAGCCCCU", "log2 enrichment": 1.36}
{"Strand": "UGGCCCUGGUGGCAUGCGGGGAGGAAGAGGUGGCCUCAUGGAUCGUGGUGGUCCCGGUGGAAUGUUCAGAGGUGGCCGUCGUGGAGACAG", "log2 enrichment": 0.179}
{"Strand": "AGUCCUGUGCUACACAUCGUAUGUACCGAAUCAAAUUUUUUUAAACCCAAACCCAAAAAAGUAUUAUGUUACGCCGUUCGGAUCUGCACU", "log2 enrichment": -0.574}
{"Strand": "ACCAUGCAGAUGGGCAUCUUUGGGAAGUGGGGCAAGGGGGGGAUAGGGAGGGGGGUAACACUUUGGGAACAGGUGGUCCCAGGUCGUUUC", "log2 enrichment": 1.19}
{"Strand": "UCAAGUCCUGUGCUACACAUCGUAUGUACCGAAUCGGGUUUGGGAAAGGGAGGGAAAGUAUUAUGUUACGCCGUUCGGAUCUGCACUUCC", "log2 enrichment": 1.16}
{"data": "Block 2", "target": "ABI1, truncated, D143A, DHFR fusion (Arabidopsis thaliana)", "technique": "DHFR PCA, deep sequencing", "sample": "yeast", "setting": "methotrexate growth selection, single substitutions", "with": "(+)-ABA 200 µM", "relative to": "wild-type fitted maximum", "direction": "higher = stronger binding", "starting sequence": "PYL1, truncated, DHFR fusion (Arabidopsis thaliana); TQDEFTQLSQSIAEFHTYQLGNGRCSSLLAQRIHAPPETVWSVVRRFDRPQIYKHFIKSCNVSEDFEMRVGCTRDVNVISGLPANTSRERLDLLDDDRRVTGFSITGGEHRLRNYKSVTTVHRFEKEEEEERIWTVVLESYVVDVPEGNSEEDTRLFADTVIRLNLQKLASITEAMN"}
{"Variant": "N77L", "relative binding score [%]": 100}
{"Variant": "R24L", "relative binding score [%]": 94.6}
{"Variant": "T101E", "relative binding score [%]": 15.7}
{"Variant": "D159R", "relative binding score [%]": 29.2}
{"Variant": "N22W", "relative binding score [%]": 93.2}
{"Variant": "R32F", "relative binding score [%]": 86.9}
{"Variant": "L112I", "relative binding score [%]": 51.4}
{"Variant": "R24K", "relative binding score [%]": 109}
{"Variant": "R74T", "relative binding score [%]": 11.2}
{"Variant": "R49S", "relative binding score [%]": 94.7}
{"Variant": "V44K", "relative binding score [%]": 18.3}
{"Variant": "E127G", "relative binding score [%]": 113}
{"data": "Block 3", "target": "Sal-like protein 4, full length isoform B (SALL4, Homo sapiens, UniProt Q9UJQ4-2, residues 1-616)", "technique": "universal PBM", "molecule type": "double-stranded DNA, one strand shown", "sample": "in vitro", "concentration": "not given", "setting": "8-mer, flanks averaged, mean of replicates", "direction": "higher = stronger binding"}
{"Strand": "GGATCCCA", "E-score": -0.139}
{"Strand": "TAGGAACA", "E-score": 0.101}
{"Strand": "AATGTCCA", "E-score": 0.083}
{"Strand": "CAAACAGG", "E-score": -0.118}
{"Strand": "GACATGCC", "E-score": -0.0092}
{"Strand": "CAGGGACG", "E-score": -0.149}
{"Strand": "CTTTTGTC", "E-score": 0.0798}
{"Strand": "AGTCCGCG", "E-score": -0.192}
{"Strand": "GCGGTCGA", "E-score": -0.136}
{"Strand": "ACGGAAAA", "E-score": 0.118}
{"Strand": "CAACAGGG", "E-score": -0.185}
{"Strand": "ACGAGGAT", "E-score": -0.0164}
{"Strand": "CACTGAAG", "E-score": -0.0363}
{"Strand": "ACATAAGA", "E-score": 0.29}
{"Strand": "ATTCTCAA", "E-score": 0.197}
{"Strand": "GACCTCGA", "E-score": -0.142}
{"Strand": "ATCACCGG", "E-score": -0.215}
{"Strand": "GCCAGGGA", "E-score": -0.281}
{"Strand": "GACCAGGA", "E-score": -0.234}
{"Strand": "GAGGAGTA", "E-score": -0.0329}
{"Strand": "GAGCATTA", "E-score": 0.188}
{"Strand": "CCACTGGA", "E-score": -0.246}
{"Strand": "ACCGACCG", "E-score": -0.263}
{"Strand": "GCTGCTGA", "E-score": -0.252}
{"Strand": "ATCGCCAG", "E-score": -0.0988}
{"data": "Block 4", "target": "RNA binding protein fox-1 homolog 2, RRM domain, GST-SBP tag (RBFOX2, Homo sapiens, UniProt O43251-10, residues 100-194)", "technique": "RNA Bind-n-Seq", "molecule type": "RNA", "sample": "in vitro", "concentration": "365 nM", "setting": "natural RNA segment, single round, ends assumed", "relative to": "no-protein control", "direction": "higher = stronger binding", "all sequences stand within": "GGGAGUUCUACAGUCCGACGAUC … UGGAAUUCUCGGGUGCCAA", "Target sequence (chain)": "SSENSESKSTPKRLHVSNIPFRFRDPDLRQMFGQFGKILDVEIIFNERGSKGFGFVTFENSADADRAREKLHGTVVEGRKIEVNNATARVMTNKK"}
{"Strand": "UUGCCUCCAUUCCAUGAGGCAUACAGUAAGGCUGCCUGCUAGUAAGCAGUCACAUAAGUGGGUACCUAUCCAGCCAUUCUCUUUUCAGAGCAUAUAAUACUAUCUUAGCC", "RBNS enrichment (R)": 0.367}
{"Strand": "CUUGGUUUGACCUAAAACAUCUGAUUAAUAUAGGCUAGCUGAUUUCUUAAAAAUUCGUUGCAUUGAAGGAUAUUUUGCAUGUCUGUAACACCUGUCAAUACUUGUUUGUA", "RBNS enrichment (R)": 4.04}
{"Strand": "UGUUUAUAUUAAAACAGACUAUUAUAAAGCUUUAAGUUGUCAACUUUGUUCUGAAUAUCAACUAGAGCAAGCAAAUACUGGAGAUUUCUUAGUCAGUUUUUAGGGGACCU", "RBNS enrichment (R)": 0.389}
{"Strand": "AGCAAAACUGCUGUCGCUGCAGUAUCUGAUACCAGACAUCCACAUAUCCACAAGAAGUGCCUCUUAGGUCUGUGACAGAGAGUGUGUCUCCAUUCCUCAGUUCCCAGAAA", "RBNS enrichment (R)": 0.259}
{"Strand": "AAAUGAGAAUUACUUGGUAUUAUUUUGGUCUGUGGCUUCUAAGAUUUUUUAAAAUACAUGAAAAAUGUAGUAAAUCACUAAAAUUCAUUUAUCCUUCUCCUUUGAAAGAU", "RBNS enrichment (R)": 0.632}
{"Strand": "UGGAGUUCUGAACCCAUGAUGUUGUAUUAUGCUUCUUUCUCCUCUUAGCACUCUCAAAUUUCAGGUUUGUAAAACACAGUUUUUGUUUUGUGUUCUGGCAAAGUGAUCUC", "RBNS enrichment (R)": 0.365}
{"Strand": "AGCAAAUAUUGUCUUCAAAAGAAUGCACAAGAACCACAAUUAAGAUGUCAUAUUAUUUUGAAAGUACAAAAUAUACUAAAAGAGUGUGUGUGUAUUCACGCAGUUACUCG", "RBNS enrichment (R)": 0.497}
{"Strand": "AAACCACAGAACAGUUUGUGAUUUCUAUUGCUGUAGCUAGGUAUCUUACUCUGUCCACUCUUGUUCAAGUAUCUAACUCUUCUGGAAACCAAAUAGGCUUUAGAAGAGAU", "RBNS enrichment (R)": 0.376}
{"note": "Repeated from above (block 1):"}
{"Strand": "CACAGACAACACGCAAACACACAGACACAGAGGGAAGGGGUUGGGAUGGGGACAGGGUGCACAGCAGGGCGGGGUAGGACCCCAGCCCCU", "log2 enrichment": 1.36}
{"Strand": "UUAAGUUGAAGGAGCGCUACCGCAACGUGCUGGACACCAUGUUCGAGCUGCUGCCCCGGAUGGCCAGGUACUGCCAGCCCCCACCCUGGC", "log2 enrichment": -0.29}
{"Strand": "CCUCAAGUCCUGUGCUACACAUCGUAUGUACCGAAUCGGCCGGCCGGGCCGGAAAGUAUUAUGUUACGCCGUUCGGAUCUGCACUUCCAG", "log2 enrichment": -0.23}
{"Strand": "UGGCCCUGGUGGCAUGCGGGGAGGAAGAGGUGGCCUCAUGGAUCGUGGUGGUCCCGGUGGAAUGUUCAGAGGUGGCCGUCGUGGAGACAG", "log2 enrichment": 0.179}
{"Strand": "UCAAGUCCUGUGCUACACAUCGUAUGUACCGAAUCGGGUUUGGGAAAGGGAGGGAAAGUAUUAUGUUACGCCGUUCGGAUCUGCACUUCC", "log2 enrichment": 1.16}
{"Strand": "CCUCAAGUCCUGUGCUACACAUCGUAUGUACCGAAUCGGAAGGAAGGGGAAGGAAAGUAUUAUGUUACGCCGUUCGGAUCUGCACUUCCA", "log2 enrichment": -0.368}
{"Strand": "ACCAUGCAGAUGGGCAUCUUUGGGAAGUGGGGCAAGGGGGGGAUAGGGAGGGGGGUAACACUUUGGGAACAGGUGGUCCCAGGUCGUUUC", "log2 enrichment": 1.19}
{"Strand": "AGUCCUGUGCUACACAUCGUAUGUACCGAAUCAAAUUUUUUUAAACCCAAACCCAAAAAAGUAUUAUGUUACGCCGUUCGGAUCUGCACU", "log2 enrichment": -0.574}
